Experimental data from different studies.
Numbered parts are unrelated; each lists some results of a single study. Positions count from the first letter of the parent shown.

Study 1 — technique: DHFR PCA, deep sequencing; sample: yeast; with: (+)-ABA 58 µM; reference: wild-type fitted maximum; direction: higher = stronger binding
Target: ABI1, truncated, D143A, DHFR fusion (Arabidopsis thaliana)
Setting: methotrexate growth selection, single substitutions
Starting sequence: PYL1, truncated, DHFR fusion (Arabidopsis thaliana); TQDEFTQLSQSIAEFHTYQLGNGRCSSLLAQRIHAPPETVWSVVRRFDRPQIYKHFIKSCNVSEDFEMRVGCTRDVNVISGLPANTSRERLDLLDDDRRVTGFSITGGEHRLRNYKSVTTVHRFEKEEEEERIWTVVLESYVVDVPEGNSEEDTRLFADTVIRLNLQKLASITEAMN; partner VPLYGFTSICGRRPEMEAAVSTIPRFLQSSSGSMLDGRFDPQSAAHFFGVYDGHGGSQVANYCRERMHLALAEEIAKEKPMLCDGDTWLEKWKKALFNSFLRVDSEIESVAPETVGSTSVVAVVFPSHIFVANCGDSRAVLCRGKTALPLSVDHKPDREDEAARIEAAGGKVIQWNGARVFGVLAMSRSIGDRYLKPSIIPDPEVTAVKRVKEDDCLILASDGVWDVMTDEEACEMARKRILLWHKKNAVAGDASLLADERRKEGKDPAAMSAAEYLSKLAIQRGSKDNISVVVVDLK
Change | relative binding score [%]
K116M | 40.6
I133D | 98.3
N165R | 0.282
S11A | 91.8
R99G | 65.2
L91C | 61.6
E130N | 92.2
L93K | 75.1
V136S | 20.3
Q2G | 59.6
L91S | 19.8

Study 2 — technique: protein-binding microarray; molecule type: double-stranded DNA, one strand shown; sample: in vitro; tested at: 250 nM; setting: 60-bp whole probe; with: salmon DNA 0.4 mg/ml; reference: random background probes; direction: higher = stronger binding; all sequences stand within: GCCTAGCAC … GTCTTGATTCGCTTGACGCTGCTG
Target: Interferon regulatory factor 5, full length, phosphomimetic (IRF5, Homo sapiens, UniProt Q13568-2, residues 1-514, K96S/S451D/S453D/S456D/S462D)
Strand | log fluorescence [z-score]
CCTCGTCTCTATCAAAAATAGTGCTAG | 0.494
GACGTTCTCGGTTTCGGGACGTGCTAG | 3.7
AGGCAGGCATAAAGGAAAAAGTGCTAG | -0.4
TTATGACTGCTTTTCCTTTAGTGCTAG | 0.674
AGCCGTCTCCACCTGGGCAAGTGCTAG | -0.599
TTGTGTTGCTGTTTGAGGAAGTGCTAG | 0.355
GGGTCTCTGGGTCGGGCAGGGTGCTAG | -0.379
TCACCTCTCCATACTTCACTGTGCTAG | -0.0374
GACGAGATCGGGTATCGAGACGTGCTA | 0.824
GACGATCTCAGTATCGACACGTGCTAG | 2.15

Study 3 — technique: protein binding microarray; molecule type: double-stranded DNA, one strand shown; sample: in vitro; tested at: not given; reference: not given; direction: higher = stronger binding
Target: Histone acetyltransferase KAT6A, winged helix 2, GST fusion (KAT6A, Homo sapiens, UniProt Q92794, residues 85-181)
Setting: 8-mer, flanks averaged, mean of 2 arrays, mostly near background
Target sequence (chain): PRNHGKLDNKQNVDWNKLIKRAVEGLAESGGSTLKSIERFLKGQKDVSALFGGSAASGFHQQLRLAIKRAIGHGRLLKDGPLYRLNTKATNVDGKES
Strand | E-score
AAACACTT | -0.0659
ATTGAGAC | 0.0284
ATACCCGA | -0.0596
GTTTATGA | 0.0373
GTCCTAAA | -0.0332
CTACATAC | -0.184
AGTTAAAC | 0.0247
AGCTGATA | -0.104
CCAGACCA | -0.0106
CCGAGGGC | 0.116
AACGGAGC | -0.103
CGAAGCCG | 0.13
TAGTCATA | -0.274

Mixed results
Substance | target | assay | system | setting | how to read | quantity | result
PhoQ, residues 284 288 289 292 302 303 SSYNSA | PhoP, residues 12 14 15 18 19 LYHSL (Escherichia coli, UniProt P23836) | Sort-seq, refers to: YFP reporter | E. coli | PhoQ-PhoP variant library, with: 10 µM Mg2+ | reference: high Mg2+ state, higher = stronger signaling | fold induction | 26.2

Some of these lines once more (study 1):
Change | relative binding score [%]
L93K | 75.1
S11A | 91.8
